Measured values from different studies.
Each line is one published result; not all experiments were run side by side. Values joined by “and” are separate records of one study, mostly repeats; a detail may differ. ± gives the spread as reported.
USP14: Ubiquitin carboxyl-terminal hydrolase 14 (USP14, Homo sapiens, UniProt P54578)
Chain of UniProt P54578 (whole entry, looked up): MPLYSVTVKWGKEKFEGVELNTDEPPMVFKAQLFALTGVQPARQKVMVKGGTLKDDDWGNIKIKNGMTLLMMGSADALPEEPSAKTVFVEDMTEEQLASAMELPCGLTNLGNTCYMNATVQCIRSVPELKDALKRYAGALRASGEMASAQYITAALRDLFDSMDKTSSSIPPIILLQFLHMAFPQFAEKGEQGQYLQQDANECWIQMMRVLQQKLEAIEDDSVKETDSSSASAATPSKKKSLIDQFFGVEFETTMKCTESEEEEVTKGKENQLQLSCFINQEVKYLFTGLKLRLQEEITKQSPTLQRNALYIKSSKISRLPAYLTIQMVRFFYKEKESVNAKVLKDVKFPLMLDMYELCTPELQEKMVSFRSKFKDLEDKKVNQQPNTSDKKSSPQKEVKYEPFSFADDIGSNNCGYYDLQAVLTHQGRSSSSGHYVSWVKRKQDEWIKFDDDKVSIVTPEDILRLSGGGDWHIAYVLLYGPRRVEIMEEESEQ
Gria2/Glutamate receptor 3: Gria2/Glutamate receptor 3 (Rattus norvegicus, UniProt P19491+P19492)
Chain of UniProt Q92633 (whole entry, unmodified, looked up): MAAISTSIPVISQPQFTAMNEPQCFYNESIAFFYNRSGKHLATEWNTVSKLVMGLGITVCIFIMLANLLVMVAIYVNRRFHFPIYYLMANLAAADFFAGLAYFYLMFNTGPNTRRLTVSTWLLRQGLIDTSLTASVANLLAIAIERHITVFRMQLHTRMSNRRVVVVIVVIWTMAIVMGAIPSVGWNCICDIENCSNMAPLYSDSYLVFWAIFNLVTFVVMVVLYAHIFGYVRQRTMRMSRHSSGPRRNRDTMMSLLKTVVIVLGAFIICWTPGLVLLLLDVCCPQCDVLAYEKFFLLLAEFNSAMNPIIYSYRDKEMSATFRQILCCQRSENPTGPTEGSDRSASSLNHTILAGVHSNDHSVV
Chain of UniProt P19491 (whole entry, looked up): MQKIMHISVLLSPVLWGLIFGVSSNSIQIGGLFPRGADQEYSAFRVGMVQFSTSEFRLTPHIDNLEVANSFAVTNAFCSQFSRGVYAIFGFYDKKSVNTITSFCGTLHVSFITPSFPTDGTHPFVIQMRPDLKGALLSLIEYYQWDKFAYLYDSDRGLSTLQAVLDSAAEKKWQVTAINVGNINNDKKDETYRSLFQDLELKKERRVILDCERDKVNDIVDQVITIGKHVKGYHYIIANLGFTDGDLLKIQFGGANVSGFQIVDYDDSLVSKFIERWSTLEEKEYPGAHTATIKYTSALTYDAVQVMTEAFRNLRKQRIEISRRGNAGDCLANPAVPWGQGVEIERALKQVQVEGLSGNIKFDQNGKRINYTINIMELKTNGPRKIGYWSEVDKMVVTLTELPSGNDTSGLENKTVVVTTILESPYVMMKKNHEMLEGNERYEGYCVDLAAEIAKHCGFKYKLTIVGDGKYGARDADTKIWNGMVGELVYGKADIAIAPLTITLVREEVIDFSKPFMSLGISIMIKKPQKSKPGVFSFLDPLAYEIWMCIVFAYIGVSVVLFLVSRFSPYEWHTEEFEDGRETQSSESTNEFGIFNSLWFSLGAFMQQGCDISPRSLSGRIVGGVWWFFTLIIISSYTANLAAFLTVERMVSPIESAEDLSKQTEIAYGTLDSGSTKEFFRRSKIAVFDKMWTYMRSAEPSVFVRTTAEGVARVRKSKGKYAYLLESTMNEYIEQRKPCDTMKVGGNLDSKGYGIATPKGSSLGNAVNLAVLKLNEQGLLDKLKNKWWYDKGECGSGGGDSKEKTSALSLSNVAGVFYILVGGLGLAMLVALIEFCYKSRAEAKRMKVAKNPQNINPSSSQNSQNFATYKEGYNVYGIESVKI
Chain of UniProt Q8TDU9 (whole entry, looked up): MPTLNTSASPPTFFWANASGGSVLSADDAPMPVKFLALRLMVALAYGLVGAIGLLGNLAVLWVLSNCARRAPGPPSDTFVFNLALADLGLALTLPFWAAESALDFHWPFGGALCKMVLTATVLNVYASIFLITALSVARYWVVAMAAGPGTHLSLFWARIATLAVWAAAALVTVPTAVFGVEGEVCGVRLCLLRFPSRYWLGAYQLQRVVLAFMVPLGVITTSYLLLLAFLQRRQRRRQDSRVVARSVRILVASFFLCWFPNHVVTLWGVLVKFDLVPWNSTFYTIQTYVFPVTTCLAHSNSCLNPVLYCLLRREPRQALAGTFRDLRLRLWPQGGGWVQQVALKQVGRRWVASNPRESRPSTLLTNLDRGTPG
Chain of UniProt P19492 (whole entry, looked up): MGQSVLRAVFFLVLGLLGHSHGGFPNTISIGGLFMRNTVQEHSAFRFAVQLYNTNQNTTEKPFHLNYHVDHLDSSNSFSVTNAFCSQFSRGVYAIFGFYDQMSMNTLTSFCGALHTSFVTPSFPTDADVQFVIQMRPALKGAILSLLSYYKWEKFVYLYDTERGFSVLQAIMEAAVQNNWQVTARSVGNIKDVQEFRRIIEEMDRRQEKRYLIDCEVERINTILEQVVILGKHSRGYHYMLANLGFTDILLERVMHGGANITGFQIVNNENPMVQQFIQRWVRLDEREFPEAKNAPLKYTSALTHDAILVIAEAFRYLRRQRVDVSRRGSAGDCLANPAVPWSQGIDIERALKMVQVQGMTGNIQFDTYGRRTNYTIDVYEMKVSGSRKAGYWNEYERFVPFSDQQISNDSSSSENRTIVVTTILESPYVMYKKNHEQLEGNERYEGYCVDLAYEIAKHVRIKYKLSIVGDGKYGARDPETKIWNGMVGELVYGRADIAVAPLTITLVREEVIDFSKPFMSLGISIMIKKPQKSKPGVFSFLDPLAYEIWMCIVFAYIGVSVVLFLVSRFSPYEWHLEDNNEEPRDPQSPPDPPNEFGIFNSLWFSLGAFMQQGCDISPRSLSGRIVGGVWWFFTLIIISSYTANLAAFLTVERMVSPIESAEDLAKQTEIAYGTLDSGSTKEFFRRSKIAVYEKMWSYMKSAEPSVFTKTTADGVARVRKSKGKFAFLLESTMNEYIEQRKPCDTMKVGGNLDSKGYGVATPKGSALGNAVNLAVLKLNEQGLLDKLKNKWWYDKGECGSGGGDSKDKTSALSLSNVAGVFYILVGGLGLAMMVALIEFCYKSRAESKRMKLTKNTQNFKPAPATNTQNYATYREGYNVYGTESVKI
Chain of UniProt Q9H4M9 (whole entry, looked up): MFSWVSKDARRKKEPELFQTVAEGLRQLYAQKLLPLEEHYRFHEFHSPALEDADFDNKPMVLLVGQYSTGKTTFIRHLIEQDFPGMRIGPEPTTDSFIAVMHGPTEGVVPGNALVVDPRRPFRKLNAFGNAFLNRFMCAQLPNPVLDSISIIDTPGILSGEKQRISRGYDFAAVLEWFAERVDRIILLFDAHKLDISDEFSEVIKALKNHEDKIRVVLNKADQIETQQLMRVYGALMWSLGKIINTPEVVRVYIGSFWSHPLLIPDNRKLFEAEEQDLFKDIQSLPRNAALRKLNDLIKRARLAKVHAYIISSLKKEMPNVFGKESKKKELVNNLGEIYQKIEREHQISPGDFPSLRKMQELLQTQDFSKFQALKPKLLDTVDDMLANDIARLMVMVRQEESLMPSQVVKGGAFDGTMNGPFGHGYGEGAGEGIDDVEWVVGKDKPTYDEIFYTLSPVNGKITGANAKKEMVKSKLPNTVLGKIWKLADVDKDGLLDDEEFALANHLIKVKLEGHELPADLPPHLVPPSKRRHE
Chain of UniProt Q13224 (whole entry, looked up): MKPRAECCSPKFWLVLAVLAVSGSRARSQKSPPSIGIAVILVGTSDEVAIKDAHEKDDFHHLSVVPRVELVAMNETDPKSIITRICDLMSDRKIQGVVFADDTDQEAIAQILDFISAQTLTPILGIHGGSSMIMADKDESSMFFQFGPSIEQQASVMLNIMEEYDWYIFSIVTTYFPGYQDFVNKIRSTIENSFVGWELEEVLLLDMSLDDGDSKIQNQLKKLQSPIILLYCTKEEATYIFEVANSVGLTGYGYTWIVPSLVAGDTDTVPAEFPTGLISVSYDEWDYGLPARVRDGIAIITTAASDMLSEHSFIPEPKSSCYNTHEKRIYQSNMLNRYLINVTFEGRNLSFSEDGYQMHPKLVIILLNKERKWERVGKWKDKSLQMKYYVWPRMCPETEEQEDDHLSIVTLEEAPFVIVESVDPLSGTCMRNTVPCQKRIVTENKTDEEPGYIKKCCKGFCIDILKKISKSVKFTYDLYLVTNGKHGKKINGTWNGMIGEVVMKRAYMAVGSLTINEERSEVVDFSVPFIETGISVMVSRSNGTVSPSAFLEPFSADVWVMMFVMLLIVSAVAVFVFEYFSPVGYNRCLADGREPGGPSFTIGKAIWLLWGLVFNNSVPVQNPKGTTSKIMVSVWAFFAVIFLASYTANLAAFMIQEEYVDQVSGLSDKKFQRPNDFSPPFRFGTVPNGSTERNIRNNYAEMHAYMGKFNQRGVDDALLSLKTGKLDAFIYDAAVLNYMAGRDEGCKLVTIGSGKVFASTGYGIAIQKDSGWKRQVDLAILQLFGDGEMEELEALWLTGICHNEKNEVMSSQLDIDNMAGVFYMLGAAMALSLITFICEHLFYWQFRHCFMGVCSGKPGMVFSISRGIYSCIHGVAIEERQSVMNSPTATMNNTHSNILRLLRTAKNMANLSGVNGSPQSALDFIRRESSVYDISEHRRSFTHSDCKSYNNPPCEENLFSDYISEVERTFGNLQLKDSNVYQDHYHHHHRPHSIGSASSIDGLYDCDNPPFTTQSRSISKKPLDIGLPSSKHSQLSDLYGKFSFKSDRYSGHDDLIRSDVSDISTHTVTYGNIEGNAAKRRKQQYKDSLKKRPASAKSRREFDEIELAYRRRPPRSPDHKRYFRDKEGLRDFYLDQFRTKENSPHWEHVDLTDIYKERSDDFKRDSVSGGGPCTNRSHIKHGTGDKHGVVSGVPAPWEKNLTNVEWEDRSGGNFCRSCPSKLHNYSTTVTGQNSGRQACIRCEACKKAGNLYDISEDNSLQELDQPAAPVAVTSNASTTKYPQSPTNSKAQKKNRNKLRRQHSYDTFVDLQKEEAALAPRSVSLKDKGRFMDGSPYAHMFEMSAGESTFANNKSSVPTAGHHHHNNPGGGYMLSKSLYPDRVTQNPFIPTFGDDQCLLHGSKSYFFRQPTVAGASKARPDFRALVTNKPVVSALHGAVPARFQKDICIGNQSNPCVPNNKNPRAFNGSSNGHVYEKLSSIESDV

CCN(CC)C(CO)c1cccc2c(C)c(C)oc12 (stereo not drawn) gave a fold change of 0.437 and 0.827 and 0.743 and 1.02 and 0.987 and 0.651 (LPAR1 (Homo sapiens, UniProt Q92633, W210A); G-protein dissociation, agonist, NanoBiT; HEK-293T; 1 µM, W210A mutant; baseline: baseline luminescence).
With COC(=O)[C@@]1(C)C=C(C(=O)Nc2cccc(C(=O)Nc3ccc(Nc4nccc(-c5cccnc5)n4)c(C)c3)c2)C(=O)CC1 the remaining activity was 0.00506 (MAPK8 (Homo sapiens, UniProt P45983); enzyme activity, inhibitor; 44.44 µM, 6 h, unit not given, together with: GSH 10 mM pre-incubation; baseline: vehicle).
The Km of O=c1[nH]c(=O)c2nccnc2[nH]1 is reported as 25.7 ± 1.2 µM (dehydrogenase LA1_0145-0147 E1 (Cupriavidus sp. LA-1); substrate; pH 7.5).
With CCCC[C@H](NC(=O)[C@H](CCC(N)=O)NC(=O)[C@H](CCC(=O)O)NC(=O)[C@@H]1CCCN1C(=O)[C@@H](NC(=O)[C@H](C)NC(=O)[C@H](CC(N)=O)NC(=O)[C@H](CC(=O)O)NC(=O)CNC(=O)[C@@H]1CCCN1C(=O)[C@H](Cc1ccc(O)cc1)NC(=O)[C@@H](NC(=O)[C@@H]1CCCN1C(=O)[C@H](CCC(=O)O)NC(=O)[C@H](CC(C)C)NC(=O)[C@@H]1CCCN1C(=O)[C@H](C)N)C(C)C)[C@@H](C)O)C(=O)N[C@@H](C)C(=O)N[C@@H](CCC(N)=O)C(=O)N[C@@H](Cc1ccc(O)cc1)C(=O)N[C@@H](C)C(=O)N[C@@H](CCCCNC(=O)c1ccc2c(c1)C(=O)OC21c2ccc(N(C)C)cc2Oc2cc(N(C)C)ccc21)C(=O)N[C@@H](CC(=O)O)C(=O)N[C@@H](CC(C)C)C(=O)N[C@@H](CCCNC(=N)N)C(=O)N[C@@H](CCCNC(=N)N)C(=O)N[C@@H](Cc1ccc(O)cc1)C(=O)N[C@H](C(=O)N[C@@H](CC(N)=O)C(=O)N[C@@H](CCCC)C(=O)N[C@@H](CC(C)C)C(=O)N[C@H](C(=O)N[C@@H](CCCNC(=N)N)C(=O)N1CCC[C@H]1C(=O)N[C@@H](CCCNC(=N)N)C(=O)N[C@@H](Cc1ccc(O)cc1)C(N)=O)[C@@H](C)O)[C@@H](C)CC the KD ratio was 1 (NPY4R (Homo sapiens, UniProt P50391); binding, NanoBRET; baseline: mutant over wild type).
C=CC(=O)N1CCCC(n2c(=O)c3ncccc3n(Cc3ccc(Oc4ccccc4)cc3)c2=O)C1 (stereo not drawn) gave a melting temperature of 44.1 °C and 48.3 °C (EH domain-containing protein 1 (Homo sapiens, UniProt Q9H4M9); thermal proteome profiling, item: EHD1; treated).
With C[C@@H](Nc1nc(N[C@H](C)C(F)(F)F)nc(-c2cccc(Cl)n2)n1)C(F)(F)F the maximal inhibition was 96% (IDH1 (Homo sapiens, UniProt O75874, R132H); 2-HG production, inhibitor; neurospheres 522).
Under “enthalpy change (ΔH)”, CC[C@H](C)[C@H](NC(=O)[C@@H](NC(=O)[C@@H](NC(=O)[C@@H](NC(=O)[C@H](CCCNC(=N)N)NC(=O)[C@H](CCC(=O)O)NC(=O)[C@H](CCC(=O)O)NC(=O)[C@H](C)NC(=O)[C@H](CCC(=O)O)NC(=O)CNC(=O)[C@H](C)NC(=O)CN)C(C)C)C(C)C)C(C)C)C(=O)N[C@@H](CC(=O)O)C(=O)N[C@@H](CC(=O)O)C(=O)N[C@@H](CC(=O)O)C(=O)N[C@@H](CCC(=O)O)C(=O)N[C@@H](CC(=O)O)C(=O)N[C@@H](CC(=O)O)C(=O)N[C@@H](CC(=O)O)C(=O)N[C@@H](C)C(=O)N[C@@H](CCC(=O)O)C(=O)N[C@@H](CC(N)=O)C(=O)N[C@@H](CO)C(=O)N[C@@H](CO)C(=O)N[C@@H](CO)C(=O)N[C@@H](CCCNC(=N)N)C(=O)N[C@@H](Cc1ccc(O)cc1)C(=O)O is recorded as 6.51 ± 0.05 kcal/mol (Small ubiquitin-related modifier 1, residues 17-97 (Homo sapiens, UniProt P63165, C52A); isothermal titration calorimetry; concentration not given, pH 7.4, N-terminally truncated SUMO1).
C#CCOC(=O)[C@@]1(C)C=C(C(=O)Nc2cccc(C(=O)Nc3ccc(C)c(Nc4nccc(-c5cccnc5)n4)c3)c2)C(=O)CC1 has a remaining activity of 0.883 (MAPK9 (Homo sapiens, UniProt P45984); enzyme activity, inhibitor; 0.02032 µM, unit not given; baseline: vehicle).
CC(=O)NCC1CCCCN1c1nc(NCCn2nnc(C)n2)nc(N2CC3C(CCOc4cc(-c5scnc5C)ccc4CNC(=O)[C@@H]4C[C@@H](O)CN4C(=O)[C@@H](NC(=O)C4(F)CC4)C(C)(C)C)C3C2)n1 (stereo partly drawn): “ternary complex formation” 25% (VHL/BRD9, with Elongin B/C (Homo sapiens, UniProt P40337+Q9H8M2); native mass spectrometry; 5 µM, together with: BRD9 and VCB at 5 µM; baseline: unbound BRD9).
With C=C=C(CN1CCCC(C(=O)O)C1)C(c1ccc(OC)cc1)(c1ccc(OC)cc1)c1ccc(OC)cc1 (stereo not drawn) the remaining signal was 22.4% (SLC6A9 (Homo sapiens, UniProt P48067); cell-free assay; 1 µM).
The inhibition of O=C(NC1(O)C(=O)c2ccccc2C1=O)c1ccc(C(F)(F)F)cc1 is reported as 24% (USP14; enzyme activity, inhibitor; 17 µM).
Under “bound ligand fraction”, CCN(CC)C(=O)c1ccc(O)c(OC)c1 is recorded as 0.74 (Heat shock protein HSP 90-alpha, N-terminal domain (HSP90AA1, Homo sapiens, UniProt P07900); binding, ligand-observed NMR titration; 10.00 µM, ligand to protein ratio 56).
For C[Si](C)(C)C[C@@H](CN)CC(=O)O, the inhibition was 14% (SIGMAR1 (Homo sapiens, UniProt Q99720); ligand displacement, radioligand; 75 µM).
Under “deactivation time constant”, O=C(O)Cc1cc2c(cc1C(=O)c1ccccc1Cl)OCO2 is recorded as 8.6 ± 0.6 ms (Gria2/Glutamate receptor 3; glutamate-evoked current, whole-cell patch clamp; HEK-293T; concentration not given, weighted tau, 1 ms pulse, together with: glutamate).
The basal binding of CCCCOc1ccc(C(=O)OCC[N+]2(C)CC=CCC2)cc1 (stereo not drawn) is reported as 1 ± 0.03 fold (CHRM1 (Homo sapiens, UniProt P11229); membranes; 1 µM, 15 h, no carbachol; baseline: control).
COC(=O)Cc1cc2c(cc1C(=O)c1cccc(Br)c1)OCO2 — result for “current amplitude after recovery”: 485 ± 41 pA (Gria2/Glutamate receptor 3; glutamate-evoked current, whole-cell patch clamp; HEK-293T; concentration not given, glutamate alone after washout, together with: glutamate).
CC[C@H](C)[C@@H]1NC(=O)[C@H](Cc2ccccc2)NC(=O)[C@H](CCC(=O)O)NC(=O)[C@H](CCCNC(=N)N)NC(=O)CNC(=O)[C@@H](NC(=O)[C@H](CC(C)C)NC(=O)[C@H](CCCNC(=N)N)NC(=O)[C@@H](NC(=O)CNC(=O)[C@H](Cc2ccc(O)cc2)NC(=O)[C@@H]2CCCN2C(=O)[C@H](C)NC(=O)[C@H](C)NC(=O)[C@@H](N)CCCNC(=N)N)C(C)C)CSSC[C@@H]2NC(=O)[C@@H](NC(=O)[C@H](CO)NC(=O)[C@H](CO)NC(=O)[C@H](CO)NC(=O)[C@H](CC(C)C)NC(=O)CNC(=O)[C@H](C)NC(=O)[C@H](CC(C)C)NC(=O)[C@@H](NC(=O)[C@@H](N)CC(=O)O)C(C)C)CSSC[C@H](NC(=O)CNC(=O)[C@H](Cc3c[nH]c4ccccc34)NC(=O)[C@H](CCCCN)NC2=O)C(=O)N[C@@H](CO)C(=O)N[C@@H](CCCCN)C(=O)N[C@@H](CO)C(=O)N[C@@H](CCC(=O)O)C(=O)N[C@@H]([C@@H](C)CC)C(=O)N[C@@H](CO)C(=O)N[C@@H](CO)C(=O)N[C@@H](CC(C)C)C(=O)N[C@H](C(=O)O)CSSC[C@@H](C(=O)NCC(=O)NCC(=O)N[C@@H](CO)C(=O)N[C@@H](CCCNC(=N)N)C(=O)N[C@@H](Cc2c[nH]c3ccccc23)C(=O)O)NC(=O)[C@H]([C@@H](C)O)NC(=O)[C@H](Cc2ccccc2)NC(=O)[C@H]([C@@H](C)CC)NC(=O)[C@H](C(C)C)NC(=O)[C@H](C)NC(=O)[C@H](CCCNC(=N)N)NC1=O gave a cAMP accumulation of -4.14% and -0.0409% and 5.47% (RXFP4 (Homo sapiens, UniProt Q8TDU9); agonist; 1 µM, wild-type receptor).
The activation of COc1ncc2nc(C)n(Cc3ncc(S(N)(=O)=O)cc3F)c2c1-c1ccccc1 is reported as 1.15% (Glutamate NMDA receptor; GRIN1/GRIN2B (GRIN1/GRIN2B, Homo sapiens, UniProt Q05586+Q13224); agonist, cell-based; 10 µM).
The ΔTm of CC(C)C[C@@H]1NC(=O)CN(C)C(=O)[C@H](Cc2c[nH]c3ccccc23)NC(=O)[C@H](CCC(=O)O)NC(=O)[C@H](Cc2ccccc2)N(C)C(=O)[C@H](Cc2ccccc2)NC(=O)CSC[C@@H](C(N)=O)NC(=O)[C@H](CCCCN)NC(=O)[C@H](C(C)C)NC(=O)[C@H](Cc2ccc(O)cc2)NC(=O)[C@H](Cc2ccc(O)cc2)NC(=O)[C@H](C(C)C)NC(=O)[C@H](Cc2ccccc2)N(C)C(=O)[C@H](CCCNC(=N)N)NC1=O is reported as 2 ± 1 °C (AT-rich interactive domain-containing protein 1B (ARID1B, Homo sapiens, UniProt Q8NFD5, V2196N); differential scanning fluorimetry; 5 µM, protein at 2 µM; baseline: vehicle control).
The remaining protein of Cn1c(=O)n(C2CCC(=O)NC2=O)c2ccc(C3CCN(CC(=O)Nc4cccc(CS(=O)(=O)N5CC[C@H](Nc6cccc(-c7sc(C(=O)O)c(OCC(=O)O)c7Cl)c6)CC5(C)C)c4)CC3)cc21 (stereo partly drawn) is reported as 3% (Tyrosine-protein phosphatase non-receptor type 2 (Ptpn2, Mus musculus, UniProt Q06180); degrader, Western blot; C57BL/6 mouse, splenocytes; intravenous, 100 mg/kg every 4 days, three doses, 2 h after final dose).
For O=C1Cc2ccccc2C(=O)N1, the inhibition was 100% (USP14; enzyme activity, inhibitor; 17 µM).
For O=C(O)Cc1cc2c(cc1C(=O)c1ccc(Cl)cc1Cl)OCO2, “desensitization time constant” read 0.6 ± 0.08 ms (Gria2/Glutamate receptor 3; whole-cell patch clamp; HEK-293T; concentration not given, together with: glutamate).
Under “isoTOP-ABPP competition ratio”, CCCCCC(O)/C=C/C=O (stereo not drawn) is recorded as 15 (Ketosamine-3-kinase (FN3KRP, Homo sapiens, UniProt Q9HA64); competitive isoTOP-ABPP; Ramos soluble proteome; 100 µM, together with: iodoacetamide probe; baseline: DMSO over compound-treated, higher = stronger cysteine blockade).
OC[C@H]1O[C@@H](Oc2cc3c(O)cc(O)cc3[o+]c2-c2cc(O)c(O)c(O)c2)[C@H](O)[C@@H](O)[C@H]1O: “binding free energy ΔG” -7.3566 ± 0.00239 kcal/mol (PPO3 (Agaricus bisporus, UniProt C7FF04); fluorescence quenching; 338 K).
For CCN(CC)CCn1c2ccccc2c2nc(C)sc21, the inhibition was 56% (USP14; enzyme activity, inhibitor; 17 µM).
CC[C@H]1CN([C@@H](CC)c2ccc(C(F)(F)F)cc2)[C@H](CC)CN1c1nc(=O)n(C)c2ccc(C#N)nc12: kinase activity “inactive” (Diacylglycerol kinase theta (DGKQ, Homo sapiens, UniProt P52824); inhibitor; concentration not given, type V DGK).
For COc1cc(Nc2nccc(-c3cnn4nc(OC)ccc34)n2)cc(C(F)(F)F)c1, the remaining binding was 100% (PIK3CA (Homo sapiens, UniProt P42336, E542K); binding; 1 µM).
